Measured values gathered from unrelated publications.
Compare with care: the assays were run in different laboratories. Values joined by “and” are separate records of one study, mostly repeats; a detail may differ.
Organism: Pseudomonas aeruginosa

SMILES	test	test system	setting	how to read	endpoint	value
CCCC(=O)Oc1c(C)c(OC)c2c(c1C)OC(=O)[C@@H](CC)[C@]2(O)/C=C/c1ccccc1 (racemic)	microbial killing, broth dilution	ATCC27853	–	–	MBC	> 5000 µg/mL
CC(C)C1=CC2=CCC3C(C)(C(=O)OCCC[N+](C)(C)C)CCCC3(C)C2CC1 (stereo not drawn)	microbial growth, disc diffusion	ATCC27853	62.5 µg/disc, 24 h	–	inhibition zone	10 mm
COc1c(C)c(OS(=O)(=O)c2ccccc2)c(C)c(O)c1C(=O)/C=C/c1ccccc1	microbial killing, broth dilution	ATCC27853	–	–	MBC	> 5000 µg/mL
CCCCCCCCCC(=O)CC(=O)Nc1ccccc1	elastin-Congo red	PAO1 wild type	100 µM, 20 h	–	elastase production	51.1%
O=c1c(O)ccccc1Br	microbial growth, broth dilution	ATCC27853	–	–	MIC80	> 71.4 µM
O=C(NCc1cc(Br)cc(Br)c1OC(=O)c1ccccc1[N+](=O)[O-])c1ccccc1Cl	elastin-Congo red	PAO1 wild type	100 µM, 20 h	–	elastase production	140%
OB(O)c1ccc(C(F)(F)F)s1	–	–	100 µM, 10 h	reference: untreated	growth	106% and 88.2% and 97% and 97.6% and 103%
CCCC(O)c1nn[nH]c1-c1ccc(O)c(OC)c1 (stereo not drawn)	microbial growth, absorbance	–	10 µM, 24 h	–	activity vs control	95%
COc1c(C)c(OC(=O)c2ccccc2)c(C)c(OC(=O)c2ccccc2)c1C(=O)/C=C/c1ccccc1	microbial killing, broth dilution	ATCC27853	–	–	MBC	> 5000 µg/mL
CCCCCCCCCNC(=O)CC(=O)c1ccccc1	elastin-Congo red	PAO1 wild type	100 µM, 20 h	reference: DMSO	elastase production	44.3%
CCCCCCCC(=O)Oc1c(C)c(OC)c2c(/C=C/c3ccccc3)c(CCCCCC)c(=O)oc2c1C	microbial killing, broth dilution	ATCC27853	–	–	MBC	> 5000 µg/mL
CN(C)S(=O)(=O)c1ccc(S(=O)(=O)N2CCC(n3c(=O)[nH]c4ccccc43)CC2)cc1	–	CIP 27853, mouse lung infection model, lung	6 mg/kg, 24 h	–	lung bacterial burden	4.39 log CFU and 4.75 log CFU and 5.57 log CFU and 7.79 log CFU and 4.58 log CFU and 4.54 log CFU and 4.91 log CFU
CCCCCCCCCC(=O)Oc1c(C)c(OC)c2c(/C=C/c3ccccc3)c(CCCCCCCC)c(=O)oc2c1C	microbial growth, well diffusion	ATCC27853	5 µg/mL	–	inhibition zone	11 mm
CC[C@H](C)[C@H](NC(=O)[C@@H]1CCCN1C(=O)[C@H](CCSC)NC(=O)[C@H](CC(C)C)NC(=O)[C@H](Cc1ccccc1)NC(=O)[C@H](Cc1ccc(O)cc1)NC(=O)[C@@H]1CCC(=O)NCC(=O)NCC(=O)NCC(=O)NCC(=O)N2CCC[C@H]2C(=O)N[C@@H]([C@@H](C)O)C(=O)N2CCC[C@H]2C(=O)N1)C(=O)N[C@@H](CC(=O)O)C(=O)N1CCC[C@H]1C(=O)N[C@@H](C)C(=O)N[C@@H](Cc1c[nH]c2ccccc12)C(=O)N[C@@H](CC(C)C)C(=O)N[C@@H](CCC(N)=O)C(=O)N[C@@H](C)C(=O)N[C@@H](CC(N)=O)C(=O)N[C@@H](CC(C)C)C(=O)N1CCC[C@H]1C(=O)N[C@@H](CC(N)=O)C(=O)N[C@H](C(=O)NCC(=O)N[C@@H](CCCCN)C(=O)N[C@@H](Cc1ccc(O)cc1)C(=O)N[C@@H](CC(N)=O)C(=O)O)[C@@H](C)O	spot-on-lawn	PAO1	concentration not given, 37 °C	–	antimicrobial activity	inactive
CC[C@H](C)CCCCC(=O)N[C@@H](CCN)C(=O)N[C@H](C(=O)N[C@@H](CCN)C(=O)N[C@H]1CCNC(=O)[C@H]([C@@H](C)O)NC(=O)[C@H](CCN)NC(=O)[C@H](CCN)NC(=O)[C@H](CC(C)C)NC(=O)[C@@H](CC(C)C)NC(=O)[C@H](CCN)NC1=O)[C@@H](C)O	–	PAO1	30 min	–	bacterial count	0 log CFU
COc1c(C)c(OC(=O)c2ccc3ccccc3c2)c(C)c(O)c1C(=O)/C=C/c1ccccc1	microbial killing, broth dilution	ATCC27853	–	–	MBC	> 5000 µg/mL
CCCC(=O)C#Cc1ccc(F)c(F)c1	microbial growth, absorbance	–	10 µM, 24 h	–	activity vs control	97%
O=C(CCc1ccc(Br)cc1)N[C@H]1CCOC1=O	elastin-Congo red	PAO1 wild type	100 µM, 20 h	–	elastase production	92.2%
CCCCCCCC(=O)Oc1c(C)c(OC)c2c(c1C)OC(=O)[C@@H](CCCCCC)[C@]2(O)/C=C/c1ccccc1 (racemic)	microbial killing, broth dilution	ATCC27853	–	–	MBC	> 5000 µg/mL
O=C(Oc1cccccc1=O)c1ccc(Cl)cc1	microbial growth, broth dilution	ATCC27853	–	–	MIC80	> 100 µM
CCCCCCCCCC(=O)CC(=O)Nc1cccc(OC)c1	elastin-Congo red	PAO1 wild type	100 µM, 20 h	reference: DMSO	elastase production	42.4%
CC(C)c1ccc2c(c1)CCC1C(C)(CN(CC(O)C[N+](C)(C)C)CC(O)C[N+](C)(C)C)CCCC21C (stereo not drawn)	microbial growth, disc diffusion	ATCC27853	250 µg/disc, 24 h	–	inhibition zone	11 mm
O=C(Nc1ccccc1NC(=O)c1cccc(Cl)c1)c1cccc(Cl)c1	elastin-Congo red	PAO1 wild type	100 µM, 20 h	–	elastase production	54%
CC(=O)N[C@@H](CCCCN)C(=O)N1CCC[C@H]1C(=O)N[C@H](C(=O)N[C@@H](Cc1ccccc1)C(=O)N[C@@H](CCC(N)=O)C(=O)N[C@@H](Cc1ccccc1)C(=O)N[C@@H](CC(C)C)C(=O)N[C@@H](Cc1ccccc1)C(=O)N[C@@H](Cc1c[nH]cn1)C(=O)N[C@@H](CCC(=O)O)C(N)=O)C(C)C	flow cytometry	PAO1, hydrogel	concentration not given, 4 h, pH 7.4, 37 °C	–	PI-permeable cells	0.12%
CCCCCCCCCCCC(=O)Oc1c(C)c(OC)c2c(c1C)OC(=O)[C@@H](CCCCCCCCCC)[C@]2(O)/C=C/c1ccccc1 (relative stereo)	microbial killing, broth dilution	ATCC27853	–	–	MBC	> 5000 µg/mL
CCCCCCCCCCCCn1nnc(CC(=O)O)n1	elastin-Congo red	PAO1 wild type	100 µM, 20 h	–	elastase production	55.6%
O=C(Oc1cccccc1=O)c1ccccc1	microbial growth, broth dilution	ATCC27853	–	–	MIC80	> 71.4 µM
O=C(CCCCCCCCCN=C=S)CC(=O)N[C@H]1CCOC1=O	elastin-Congo red	PAO1 wild type	100 µM, 20 h	reference: DMSO	elastase production	225%
CC(CCCOC(=O)CCC[N+](C)(C)C)C1CCC2C3CCC4CC(OC(=O)CCC[N+](C)(C)C)CCC4(C)C3CCC12C (stereo not drawn)	microbial growth, disc diffusion	ATCC27853	62.5 µg/disc, 24 h	–	inhibition zone	9 mm
O=c1cccccc1O	microbial growth, broth dilution	ATCC27853	–	–	MIC80	> 71.4 µM

Repeated from above:
SMILES	test	test system	setting	how to read	endpoint	value
O=c1c(O)ccccc1Br	microbial growth, broth dilution	ATCC27853	–	–	MIC80	> 71.4 µM
CCCCCCCCCCCCn1nnc(CC(=O)O)n1	elastin-Congo red	PAO1 wild type	100 µM, 20 h	–	elastase production	55.6%
CC[C@H](C)CCCCC(=O)N[C@@H](CCN)C(=O)N[C@H](C(=O)N[C@@H](CCN)C(=O)N[C@H]1CCNC(=O)[C@H]([C@@H](C)O)NC(=O)[C@H](CCN)NC(=O)[C@H](CCN)NC(=O)[C@H](CC(C)C)NC(=O)[C@@H](CC(C)C)NC(=O)[C@H](CCN)NC1=O)[C@@H](C)O	–	PAO1	30 min	–	bacterial count	0 log CFU
